Experimental data collected from several papers.
Each numbered part is a random draw from the data of one study; scales do not carry over between parts. Values joined by “and” are separate records of one study, mostly repeats; a detail may differ.
Sequence of UniProt P06239 (whole entry, looked up): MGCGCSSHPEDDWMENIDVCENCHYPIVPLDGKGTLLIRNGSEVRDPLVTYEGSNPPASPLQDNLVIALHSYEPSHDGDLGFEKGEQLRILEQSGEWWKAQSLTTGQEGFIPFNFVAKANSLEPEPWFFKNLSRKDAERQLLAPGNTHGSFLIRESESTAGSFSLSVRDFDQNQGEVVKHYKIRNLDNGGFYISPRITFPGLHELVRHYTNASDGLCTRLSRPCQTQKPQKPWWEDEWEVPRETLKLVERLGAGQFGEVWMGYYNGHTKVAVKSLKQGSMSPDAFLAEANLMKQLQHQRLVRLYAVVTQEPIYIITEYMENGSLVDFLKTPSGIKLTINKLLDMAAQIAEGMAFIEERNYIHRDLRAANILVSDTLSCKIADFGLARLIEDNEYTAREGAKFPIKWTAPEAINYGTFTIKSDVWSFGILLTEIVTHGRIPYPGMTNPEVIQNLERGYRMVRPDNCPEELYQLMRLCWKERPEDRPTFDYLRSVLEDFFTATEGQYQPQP
Sequence of UniProt P52564 (whole entry, looked up): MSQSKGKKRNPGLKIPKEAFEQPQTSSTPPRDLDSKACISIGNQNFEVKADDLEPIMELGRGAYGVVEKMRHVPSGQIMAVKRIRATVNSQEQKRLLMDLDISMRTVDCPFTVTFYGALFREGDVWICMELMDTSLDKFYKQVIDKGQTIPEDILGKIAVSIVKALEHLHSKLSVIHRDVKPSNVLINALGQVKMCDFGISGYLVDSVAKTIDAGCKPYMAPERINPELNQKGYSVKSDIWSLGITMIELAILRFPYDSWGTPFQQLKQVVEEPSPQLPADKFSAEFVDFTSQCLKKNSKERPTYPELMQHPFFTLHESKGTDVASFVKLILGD
Sequence of UniProt Q9UKI8 (whole entry, looked up): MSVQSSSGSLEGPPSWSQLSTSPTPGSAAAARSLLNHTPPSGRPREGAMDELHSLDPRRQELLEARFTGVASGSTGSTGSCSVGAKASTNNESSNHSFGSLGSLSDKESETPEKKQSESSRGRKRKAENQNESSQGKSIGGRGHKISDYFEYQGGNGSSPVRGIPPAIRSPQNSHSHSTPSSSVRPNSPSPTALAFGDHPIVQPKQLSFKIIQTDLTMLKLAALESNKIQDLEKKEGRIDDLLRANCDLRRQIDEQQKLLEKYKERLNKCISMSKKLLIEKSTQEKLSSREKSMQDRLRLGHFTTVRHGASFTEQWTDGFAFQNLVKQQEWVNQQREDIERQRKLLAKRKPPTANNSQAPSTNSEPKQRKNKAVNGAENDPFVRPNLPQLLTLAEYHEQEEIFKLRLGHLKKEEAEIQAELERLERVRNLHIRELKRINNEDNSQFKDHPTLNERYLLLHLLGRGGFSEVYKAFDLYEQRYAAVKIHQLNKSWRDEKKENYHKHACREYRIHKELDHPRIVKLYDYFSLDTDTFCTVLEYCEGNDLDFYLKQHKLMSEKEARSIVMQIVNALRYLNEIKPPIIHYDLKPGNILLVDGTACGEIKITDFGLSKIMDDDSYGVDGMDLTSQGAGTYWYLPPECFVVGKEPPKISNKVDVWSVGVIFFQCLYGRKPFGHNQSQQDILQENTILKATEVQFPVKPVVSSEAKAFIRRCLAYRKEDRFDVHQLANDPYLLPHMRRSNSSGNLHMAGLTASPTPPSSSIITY
Sequence of UniProt O95819 (whole entry, looked up): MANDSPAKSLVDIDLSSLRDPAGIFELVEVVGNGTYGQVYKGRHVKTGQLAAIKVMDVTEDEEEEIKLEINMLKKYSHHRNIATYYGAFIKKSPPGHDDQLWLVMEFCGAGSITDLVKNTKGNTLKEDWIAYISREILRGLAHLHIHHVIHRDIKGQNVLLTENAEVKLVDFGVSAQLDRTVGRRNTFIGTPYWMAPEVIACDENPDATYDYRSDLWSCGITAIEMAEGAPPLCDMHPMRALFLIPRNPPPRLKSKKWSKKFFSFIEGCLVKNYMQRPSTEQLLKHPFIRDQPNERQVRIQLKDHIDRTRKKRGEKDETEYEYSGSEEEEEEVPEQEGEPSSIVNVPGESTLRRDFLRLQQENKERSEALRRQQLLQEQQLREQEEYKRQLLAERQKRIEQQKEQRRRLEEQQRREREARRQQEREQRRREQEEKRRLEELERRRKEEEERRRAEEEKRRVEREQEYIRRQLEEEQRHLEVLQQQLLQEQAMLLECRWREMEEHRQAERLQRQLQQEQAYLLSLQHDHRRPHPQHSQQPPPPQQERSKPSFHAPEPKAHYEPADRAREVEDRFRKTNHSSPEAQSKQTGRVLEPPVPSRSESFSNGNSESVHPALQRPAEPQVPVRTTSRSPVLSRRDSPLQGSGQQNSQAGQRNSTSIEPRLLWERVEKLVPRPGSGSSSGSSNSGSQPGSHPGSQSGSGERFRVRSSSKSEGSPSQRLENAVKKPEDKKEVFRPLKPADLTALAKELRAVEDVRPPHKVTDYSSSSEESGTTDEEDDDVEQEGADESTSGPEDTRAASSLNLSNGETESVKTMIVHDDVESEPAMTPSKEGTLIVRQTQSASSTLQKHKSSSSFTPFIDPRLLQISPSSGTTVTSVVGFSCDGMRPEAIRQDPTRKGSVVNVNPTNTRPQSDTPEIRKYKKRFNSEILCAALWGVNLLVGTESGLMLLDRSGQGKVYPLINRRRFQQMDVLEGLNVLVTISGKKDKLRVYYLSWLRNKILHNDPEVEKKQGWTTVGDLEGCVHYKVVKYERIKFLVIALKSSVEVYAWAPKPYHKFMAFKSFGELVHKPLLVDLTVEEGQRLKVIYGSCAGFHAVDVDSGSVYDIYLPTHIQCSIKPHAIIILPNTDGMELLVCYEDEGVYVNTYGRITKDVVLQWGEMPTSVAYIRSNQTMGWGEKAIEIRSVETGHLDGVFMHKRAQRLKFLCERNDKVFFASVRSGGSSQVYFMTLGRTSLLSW
Sequence of UniProt P30291 (whole entry, looked up): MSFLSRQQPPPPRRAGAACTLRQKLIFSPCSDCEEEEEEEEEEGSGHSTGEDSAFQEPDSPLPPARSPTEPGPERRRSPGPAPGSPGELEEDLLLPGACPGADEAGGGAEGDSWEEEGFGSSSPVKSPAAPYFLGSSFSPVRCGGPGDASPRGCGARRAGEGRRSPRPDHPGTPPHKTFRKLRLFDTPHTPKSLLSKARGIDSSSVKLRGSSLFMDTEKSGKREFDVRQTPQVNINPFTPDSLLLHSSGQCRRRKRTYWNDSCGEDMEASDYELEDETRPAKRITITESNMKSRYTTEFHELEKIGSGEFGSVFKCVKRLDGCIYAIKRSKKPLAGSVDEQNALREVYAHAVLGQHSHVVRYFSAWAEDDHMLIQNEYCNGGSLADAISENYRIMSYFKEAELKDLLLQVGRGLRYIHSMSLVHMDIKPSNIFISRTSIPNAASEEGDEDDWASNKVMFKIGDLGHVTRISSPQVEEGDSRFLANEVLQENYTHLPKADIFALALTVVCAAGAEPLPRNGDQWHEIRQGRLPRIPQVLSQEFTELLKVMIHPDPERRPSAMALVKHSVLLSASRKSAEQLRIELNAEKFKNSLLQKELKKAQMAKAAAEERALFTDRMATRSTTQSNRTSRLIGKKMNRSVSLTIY
Sequence of UniProt Q02763 (whole entry, looked up): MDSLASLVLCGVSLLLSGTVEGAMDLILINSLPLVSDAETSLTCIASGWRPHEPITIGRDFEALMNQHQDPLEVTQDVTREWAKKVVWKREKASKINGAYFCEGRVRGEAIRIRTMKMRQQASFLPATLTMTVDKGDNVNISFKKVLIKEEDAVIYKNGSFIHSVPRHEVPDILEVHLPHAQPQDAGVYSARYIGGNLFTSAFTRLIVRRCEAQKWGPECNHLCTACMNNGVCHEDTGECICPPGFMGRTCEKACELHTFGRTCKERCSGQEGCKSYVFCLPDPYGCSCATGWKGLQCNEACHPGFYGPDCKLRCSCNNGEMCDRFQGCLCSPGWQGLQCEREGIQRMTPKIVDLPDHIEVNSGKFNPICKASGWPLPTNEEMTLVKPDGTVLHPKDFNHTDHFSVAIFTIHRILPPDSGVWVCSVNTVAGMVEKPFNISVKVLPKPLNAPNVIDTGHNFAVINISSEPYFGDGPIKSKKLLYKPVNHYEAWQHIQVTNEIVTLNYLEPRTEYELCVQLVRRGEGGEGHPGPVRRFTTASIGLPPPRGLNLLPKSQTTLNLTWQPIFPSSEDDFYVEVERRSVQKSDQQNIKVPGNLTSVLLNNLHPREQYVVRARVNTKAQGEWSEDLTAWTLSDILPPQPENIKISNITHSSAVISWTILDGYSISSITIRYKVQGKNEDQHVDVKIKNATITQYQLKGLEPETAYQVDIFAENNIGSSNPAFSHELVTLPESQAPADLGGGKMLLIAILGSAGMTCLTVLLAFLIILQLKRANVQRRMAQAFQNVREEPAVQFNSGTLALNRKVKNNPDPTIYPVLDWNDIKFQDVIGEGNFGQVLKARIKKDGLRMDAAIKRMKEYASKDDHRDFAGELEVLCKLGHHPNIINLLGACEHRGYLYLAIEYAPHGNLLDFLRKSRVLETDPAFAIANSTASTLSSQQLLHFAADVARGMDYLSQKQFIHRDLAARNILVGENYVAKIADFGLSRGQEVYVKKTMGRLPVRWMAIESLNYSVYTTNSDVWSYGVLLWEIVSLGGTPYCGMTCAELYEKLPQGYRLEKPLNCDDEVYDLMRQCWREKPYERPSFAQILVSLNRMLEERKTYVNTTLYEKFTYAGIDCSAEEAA
Sequence of UniProt Q9UQB9 (whole entry, looked up): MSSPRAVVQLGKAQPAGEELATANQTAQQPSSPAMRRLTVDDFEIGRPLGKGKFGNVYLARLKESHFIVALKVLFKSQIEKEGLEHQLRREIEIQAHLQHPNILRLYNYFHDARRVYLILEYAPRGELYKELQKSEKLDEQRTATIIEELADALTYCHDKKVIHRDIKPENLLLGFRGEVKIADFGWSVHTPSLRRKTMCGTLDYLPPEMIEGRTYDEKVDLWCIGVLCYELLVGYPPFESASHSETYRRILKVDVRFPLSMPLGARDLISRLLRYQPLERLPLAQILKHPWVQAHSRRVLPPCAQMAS

Set 1
SMILES: COc1ccc2c(c1)/C(=C/c1cnc[nH]1)C(=O)N2
Read-out: enzyme activity
Mode: inhibitor
Tested at: 0.5 µM
Reference: control
Measurement: remaining activity
MAP3K14 (Homo sapiens, UniProt Q99558): 96.9%
LCK (Homo sapiens, UniProt P06239): 92%
WEE1 (Homo sapiens, UniProt P30291): 94.2%
CSNK1G3 (Homo sapiens, UniProt Q9Y6M4): 103%
MAPKAPK2 (Homo sapiens, UniProt P49137): 99.4%
TEK (Homo sapiens, UniProt Q02763): 98.4%
MERTK (Homo sapiens, UniProt Q12866): 84.7%
FRK (Homo sapiens, UniProt P42685): 96.4%
NEK6 (Homo sapiens, UniProt Q9HC98): 98.2%

Set 2
SMILES: Cn1cncc1[C@@](O)(COc1ccc(C#N)cc1-c1ccc(OC(F)(F)F)cc1)c1ccc(C#N)cc1
Read-out: cell-free assay
Technique: competition with immobilised ligand
Tested at: 1 µM
Measurement: remaining binding
MAP3K13 (Homo sapiens, UniProt O43283): 72%
Aurora kinase C (AURKC, Homo sapiens, UniProt Q9UQB9): 90%
MAP4K4 (Homo sapiens, UniProt O95819): 100%
PIK3CG (Homo sapiens, UniProt P48736): 69%
SRPK1 (Homo sapiens, UniProt Q96SB4): 97%
LCK (Homo sapiens, UniProt P06239): 100%
MAP2K6 (Homo sapiens, UniProt P52564): 94%
Cyclin-dependent kinase 4, with cyclin D1 (CDK4, Homo sapiens, UniProt P11802): 93%
Tyrosine-protein kinase ABL1, phosphorylated (ABL1, Homo sapiens, UniProt P00519, Y253F): 92%
MKNK1 (Homo sapiens, UniProt Q9BUB5): 81%
TBK1 (Homo sapiens, UniProt Q9UHD2): 100%
WNK4 (Homo sapiens, UniProt Q96J92): 85%
Aurora kinase B (AURKB, Homo sapiens, UniProt Q96GD4): 100%
FLT3 (Homo sapiens, UniProt P36888, D835V/ITD): 80%
Tyrosine-protein kinase ABL1, non-phosphorylated (ABL1, Homo sapiens, UniProt P00519, F317L): 100%
WEE2 (Homo sapiens, UniProt P0C1S8): 100%
SGK2 (Homo sapiens, UniProt Q9HBY8): 100%
TLK1 (Homo sapiens, UniProt Q9UKI8): 100%

Set 3
Cell line: A-375
Tested at: 100 µM
Time: 18 h
Measurement: viability
CC[C@]12C=CCN3CC[C@]4(C(=C(C(=O)OC)C1)Nc1ccccc14)[C@@H]32: 25.1%
N#Cc1ccccc1-c1cc(-c2ccccn2)cn(-c2ccccc2)c1=O: 93.2%
CC[C@@H](C(N)=O)N1CCCC1=O: 108%
CCOC(=O)c1cncn1[C@H](C)c1ccccc1: 91.7%
COC1=C[C@@H]2[C@@H]3Cc4ccc(OC)c(O)c4[C@]2(CCN3C)CC1=O: 90.9%

Mixed results
Read-out: necroptosis protection
Technique: CCK-8
CC(C)(C)c1nc(-c2cccc(NS(=O)(=O)c3c(F)cccc3F)c2F)c(-c2ccnc(N)n2)s1
viability (L929; 0.781 µM, added: TNF-α-induced): 18.7%

CC(C)S(=O)(=O)c1ccc2nccc(Nc3ccc4sc(C5CCCC5)nc4c3)c2c1
viability (L929; 0.156 µM, added: TNF-α plus zVAD): 31.6%

CC(C)S(=O)(=O)c1ccc2nccc(Nc3ccc4scnc4c3)c2c1
viability (L929; 0.156 µM, added: TNF-α plus zVAD): 14.1%

CC[C@H](C)c1nc2cc(Nc3ccnc4ccc(S(=O)(=O)C(C)C)cc34)ccc2s1.Cl
viability (HT-29; 0.156 µM, added: TNF-α SMAC mimetic zVAD): 12.4% and 16.6% and 11.5% and 18.1% and 18.7%

Excerpt of the above (set 3):
CC[C@]12C=CCN3CC[C@]4(C(=C(C(=O)OC)C1)Nc1ccccc14)[C@@H]32: 25.1%
N#Cc1ccccc1-c1cc(-c2ccccn2)cn(-c2ccccc2)c1=O: 93.2%
CC[C@@H](C(N)=O)N1CCCC1=O: 108%
CCOC(=O)c1cncn1[C@H](C)c1ccccc1: 91.7%
COC1=C[C@@H]2[C@@H]3Cc4ccc(OC)c(O)c4[C@]2(CCN3C)CC1=O: 90.9%
